Measured values pooled from the literature.
Target: Acetylcholinesterase (ACHE, Homo sapiens, UniProt P22303)
UniProt P22303, sequence (whole entry, looked up): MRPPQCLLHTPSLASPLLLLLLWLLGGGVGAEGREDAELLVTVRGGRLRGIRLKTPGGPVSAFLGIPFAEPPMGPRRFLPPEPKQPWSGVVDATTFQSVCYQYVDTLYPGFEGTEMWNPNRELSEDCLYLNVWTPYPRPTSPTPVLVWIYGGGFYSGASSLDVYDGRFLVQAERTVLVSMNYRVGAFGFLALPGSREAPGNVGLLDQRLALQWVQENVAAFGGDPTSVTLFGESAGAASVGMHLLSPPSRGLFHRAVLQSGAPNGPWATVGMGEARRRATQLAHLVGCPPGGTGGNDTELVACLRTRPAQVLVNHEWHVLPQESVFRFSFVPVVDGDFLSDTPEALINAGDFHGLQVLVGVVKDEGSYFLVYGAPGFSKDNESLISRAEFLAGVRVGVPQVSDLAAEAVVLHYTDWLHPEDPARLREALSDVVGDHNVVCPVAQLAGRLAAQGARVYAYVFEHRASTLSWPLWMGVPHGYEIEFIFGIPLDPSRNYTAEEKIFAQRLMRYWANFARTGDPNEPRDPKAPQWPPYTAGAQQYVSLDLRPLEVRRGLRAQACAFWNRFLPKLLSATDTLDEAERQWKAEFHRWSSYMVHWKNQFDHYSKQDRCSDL
Observed: enzyme activity
Action: inhibitor

SMILES | test | endpoint | value
COc1cc2c(cc1OC)C(=O)/C(=C\c1ccc(N3CCCC3)cc1)C2 |  | Ki | 78 µM
O=c1ccoc2ccc(OCCCCCN3CCCCC3)cc12 | Ellman | Ki | 1.26 µM
COc1cc(/C=C/C(=O)CC(=O)/C=C/c2ccc(OC(=O)CCc3c[nH]c4ccccc34)c(OC)c2)ccc1OC(=O)CCc1c[nH]c2ccccc12 |  | Ki | 47.1 µM
COc1cc2c(cc1OC)C(=O)/C(=C\c1ccc(-n3cccn3)cc1)C2 |  | Ki | 13 µM
O=C1c2c(O)cc(O)cc2O[C@]2(c3ccc(O)c(O)c3)Oc3cc4oc(-c5ccc(O)cc5)c(O)c(=O)c4c(O)c3[C@]12O | Ellman | IC50 | 32.9 µM
O=c1ccoc2ccc(OCCCCCN3CCCCCC3)cc12 | Ellman | Ki | 4.7 µM
Cc1cc(O)c2c(c1)C(=O)c1c(O)ccc(O)c1C2=O |  | Ki | 10.3 µM
CCN(CC)CCCCCOc1ccc2occc(=O)c2c1 | Ellman | Ki | 1.61 µM
COc1cc2c(cc1OC)C(=O)/C(=C\c1ccc(N3CCOCC3)cc1)C2 |  | Ki | 47 µM

Repeated from above:
SMILES | test | endpoint | value
Cc1cc(O)c2c(c1)C(=O)c1c(O)ccc(O)c1C2=O |  | Ki | 10.3 µM
